Published values collected from several papers.
Parts stem from different laboratories: compare values within a part only. Changes are numbered by the printed parent chain.

Series 1 — method: RNA Bind-n-Seq; molecule type: RNA; matrix: in vitro; tested at: 365 nM; reference: no-protein control; reading: higher = stronger binding
Target: RNA binding protein fox-1 homolog 2, RRM domain, GST-SBP tag (RBFOX2, Homo sapiens, UniProt O43251-10, residues 100-194)
Setting: natural RNA segment, single round, ends assumed
Target sequence (chain): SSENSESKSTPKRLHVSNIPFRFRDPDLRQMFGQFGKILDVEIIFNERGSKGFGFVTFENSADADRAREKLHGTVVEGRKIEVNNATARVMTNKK
`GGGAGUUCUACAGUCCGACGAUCCGCCUCCCCCAGGGACCGGCGGACCCCAGCCAUCCAGGGGGCAAGAGGAAUUACGUGCUCUGUGGGUCUCCCCCAACGCGCCUCGCCGGAUCUGAGGGAGAACAAGACCGUGGAAUUCUCGGGUGCCAA`: “RBNS enrichment (R)” 0.394.
Under “RBNS enrichment (R)”, `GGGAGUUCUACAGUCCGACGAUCCCCAGCAAAUUUGAGGCCUAUGGUAGUUGAGGUGCUCAACUAAUGUUUGUUGUAUGAACCAAGUGGUUUGAAGACUUGCUGCCAAAUUCUGCCUUUUGGGUCAGUAUAGGUGGAAUUCUCGGGUGCCAA` is recorded as 2.2.
`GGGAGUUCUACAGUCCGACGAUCAAAAGAACAACAAAAAAACCCAGCACAAAACCGACGAUGGAGUUUGUUUCUUUGAUUUCUUUGCCAAUGGCAAGAAGAUGAGAUGCCCUCAGCACUGAGGAUUCUUGCCCUGGAAUUCUCGGGUGCCAA`: “RBNS enrichment (R)” 0.274.
For `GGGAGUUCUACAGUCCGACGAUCUUUUCUCUUAAGAAAGUGCUUUAGCACCGCUGGCUGGCAUCUUUAAUGCAGGUGGUAAACCUAAUUCCAUAAGCAUGGCCUGCCCGAGCCAGAAGGAAGAAGAGCUUGCUUGGAAUUCUCGGGUGCCAA`, “RBNS enrichment (R)” read 0.33.
`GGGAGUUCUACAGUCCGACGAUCCACAAGGAUAAUGCUGCAUUUUUCUGUCAGAGUCACACAUGUUUUUCUGGAGAGGUUAUUUCUGCAUGGAAACUCAACUUCUUGGAUUAGCUAUCUUGAGUGAAAGUCCUUGGAAUUCUCGGGUGCCAA` — result for “RBNS enrichment (R)”: 1.39.
For `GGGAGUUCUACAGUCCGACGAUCACGGAGAGGACAGUUCUUAGUCCAGUAAAAAUAUGCAGAUUGUAUGUAAUGAAUUUUUGUAAACAAAGGUAAUUUCUGUCAAAUGUAUUCUUUACUUUUUUAAUAUGUUGUGGAAUUCUCGGGUGCCAA`, “RBNS enrichment (R)” read 0.853.
`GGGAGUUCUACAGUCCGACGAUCAUGGCUUUGGUCUCUUGCUUGUGGGACUAGCCUGGCUUGGGACUAAAUGCCCUGCUCUGAACACGAAGCUUAGUAUAAACUGAUGGAUAUCCCUACCUUGAAAGAAGAAAUGGAAUUCUCGGGUGCCAA`: “RBNS enrichment (R)” 26.4.
For `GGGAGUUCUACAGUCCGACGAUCCGUCUUGUAACUAACUUUUGAAUUUUGCCUGACAUGAUUCUCUCUUGAUGAAGAAAUGACAUAUAUUAUCUUUGAAUAUCUACAAGGAAAGUUACCAACUUAUGUAGGGGUGGAAUUCUCGGGUGCCAA`, “RBNS enrichment (R)” read 0.451.
`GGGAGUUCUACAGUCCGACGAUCAUAUCCCUACCUUGAAAGAAGAAAAGGUUCUUACUGCUUGGUCCUUGAUUUAUCACACAAAGCAGAAUAGUAUUUUUAUAUUUAAAUGUAAAGACAAAAAACUAUAUGUAUGGAAUUCUCGGGUGCCAA` — result for “RBNS enrichment (R)”: 0.538.

Series 2 — method: protein-binding microarray; molecule type: hairpin DNA; matrix: in vitro; tested at: not given; reference: not given; reading: higher = stronger binding
Target: Runt-related transcription factor 3, Runt domain (RUNX3, Homo sapiens, UniProt Q13761, residues 53-186)
Chain of UniProt Q13761 (53-186, looked up): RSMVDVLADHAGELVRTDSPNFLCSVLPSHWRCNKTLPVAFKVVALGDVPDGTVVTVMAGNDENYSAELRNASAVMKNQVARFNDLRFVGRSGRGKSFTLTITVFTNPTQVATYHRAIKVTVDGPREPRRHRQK
Setting: whole hairpin DNA, median over replicate spots
`CTCAGTTCTGTGGGGTGGACTCCTGTCCACCCCACAGAACTGAGACACTC` has a median fluorescence of 4150 a.u.
For `CTCAGTTCTGTGGGTTGGACTCCTGTCCAACCCACAGAACTGAGACACTC`, the median fluorescence was 4130 a.u.
The median fluorescence of `CTCAGCTCTGTGGGCTGGACTCCTGTCCAGCCCACAGAGCTGAGACACTC` is reported as 4300 a.u.
With `GAGGCCTGACGCGGTTGGCCTCCTGGCCAACCGCGTCAGGCCTCACACTC` the median fluorescence was 5310 a.u.
`CTCAGTTCTGTCGGCTGGACTCCTGTCCAGCCGACAGAACTGAGACACTC (5mC at 32)` has a median fluorescence of 4150 a.u.
`GAGGCCCGTTGCGGTTGGCCTCCTGGCCAACCGCAACGGGCCTCACACTC (5mC at 7)` gave a median fluorescence of 9220 a.u.
The median fluorescence of `CTCAGGTCTGTGGGCTGGACTCCTGTCCAGCCCACAGACCTGAGACACTC (5mC at 39)` is reported as 4390 a.u.
`GAGGCCTGTTGCGTTTGGCCTCCTGGCCAAACGCAACAGGCCTCACACTC` gave a median fluorescence of 4430 a.u.
`CTCAGTTCGGTGGGCTGGACTCCTGTCCAGCCCACCGAACTGAGACACTC (5mC at 36)` gave a median fluorescence of 4150 a.u.
For `GAGGCCCAACCGCAACAGCCTCCTGGCTGTTGCGGTTGGGCCTCACACTC (5mC at 16)`, the median fluorescence was 11100 a.u.
`GAGGCCTGTTGTGGCGGGCCTCCTGGCCCGCCACAACAGGCCTCACACTC (5mC at 15 29)` gave a median fluorescence of 5330 a.u.
For `GAGGCCCAACCGCACCAGCCTCCTGGCTGGTGCGGTTGGGCCTCACACTC (5mC at 15)`, the median fluorescence was 6600 a.u.
`CAGGCCTGTCGCGGTTGGCCTCCTGGCCAACCGCGACAGGCCTGACACTC (5mC at 1)` has a median fluorescence of 5890 a.u.
`CTCAGTTCTGTGGGCTTGACTCCTGTCAAGCCCACAGAACTGAGACACTC` gave a median fluorescence of 4120 a.u.
`GAGGCCGGTTGTGGTTGGCCTCCTGGCCAACCACAACCGGCCTCACACTC (5mC at 38)` has a median fluorescence of 6110 a.u.
The median fluorescence of `CTCAGTTATGTGGGCTGGACTCCTGTCCAGCCCACATAACTGAGACACTC` is reported as 3950 a.u.

Series 3 — target: CCNB1, cyclin fold, Cln2 fusion (human); method: yeast growth competition, sequencing; matrix: yeast; setting: strong parent motif; reference: not given; reading: higher = stronger binding
Starting sequence: RBL2 docking peptide (human); STTRRRLFVENDS
Under “normalised enrichment score”, `STNRRRLFVENDS [T3N]` is recorded as -0.184.
`STTRRHLFVENDS [R6H]`: “normalised enrichment score” 0.185.
Under “normalised enrichment score”, `STERRRLFVENDS [T3E]` is recorded as 0.0071.
For `STTRTRLFVENDS [R5T]`, “normalised enrichment score” read 0.777.
For `STIRRRLFVENDS [T3I]`, “normalised enrichment score” read 2.29.
For `STTDRRLFVENDS [R4D]`, “normalised enrichment score” read -0.424.
`STTRRRQFVENDS [L7Q]`: “normalised enrichment score” -0.0963.
`STTRRPLFVENDS [R6P]`: “normalised enrichment score” 0.0262.
Under “normalised enrichment score”, `STTRFRLFVENDS [R5F]` is recorded as 0.175.
`STTRRRLFVPNDS [E10P]`: “normalised enrichment score” 1.21.
For `STTRRRLFVSNDS [E10S]`, “normalised enrichment score” read 1.03.
`STTRRRLFVENDL [S13L]` — result for “normalised enrichment score”: 0.0863.
`STTRRRLFVEHDS [N11H]`: “normalised enrichment score” 0.666.
`STTRRRLFSENDS [V9S]` — result for “normalised enrichment score”: 1.31.
For `STTRRALFVENDS [R6A]`, “normalised enrichment score” read 0.542.
`SQTRRRLFVENDS [T2Q]`: “normalised enrichment score” 1.34.
Under “normalised enrichment score”, `STTRARLFVENDS [R5A]` is recorded as -0.283.
Under “normalised enrichment score”, `STTRRRLFVFNDS [E10F]` is recorded as 0.275.
For `STTRRRWFVENDS [L7W]`, “normalised enrichment score” read 0.85.
Under “normalised enrichment score”, `STTRRRLFVERDS [N11R]` is recorded as 0.945.
Under “normalised enrichment score”, `STTRRRLFEENDS [V9E]` is recorded as 0.87.
`STTRRRLRVENDS [F8R]` — result for “normalised enrichment score”: -0.027.
Under “normalised enrichment score”, `STTRRRLFVENSS [D12S]` is recorded as 0.572.
`STTRIRLFVENDS [R5I]`: “normalised enrichment score” 0.739.
For `STDRRRLFVENDS [T3D]`, “normalised enrichment score” read 0.697.

Series 4 — method: RNA Bind-n-Seq; molecule type: RNA; matrix: in vitro; tested at: not given; setting: RNA with constant flanks, ends assumed; reference: input RNA pool; reading: higher = stronger binding
Target: RING finger protein unkempt homolog, zinc fingers 1-6, GST-SBP tag (UNK, Homo sapiens, UniProt Q9C0B0, residues 30-357)
Chain of UniProt Q9C0B0 (30-357, looked up): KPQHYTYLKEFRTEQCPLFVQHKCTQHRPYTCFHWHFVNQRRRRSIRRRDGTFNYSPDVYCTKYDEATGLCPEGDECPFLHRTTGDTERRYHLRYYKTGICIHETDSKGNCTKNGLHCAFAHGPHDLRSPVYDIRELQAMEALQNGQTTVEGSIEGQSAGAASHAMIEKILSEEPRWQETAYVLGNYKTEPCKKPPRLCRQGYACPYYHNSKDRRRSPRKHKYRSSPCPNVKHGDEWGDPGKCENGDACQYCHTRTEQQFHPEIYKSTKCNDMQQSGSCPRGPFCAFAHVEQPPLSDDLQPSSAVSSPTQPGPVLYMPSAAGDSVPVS
`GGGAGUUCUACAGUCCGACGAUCGCUCCACAGUUAGGAGGUAGCUUUGCAGUUUGGGGAGGGCUGUUUUCCAUGAUUGACUGCCGUAUGGUUCAAGUCAGAGGAAAGGAAGAUCCCUGGAACUCCAUCACAAGUGGUGCCUUACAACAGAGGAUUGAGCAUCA` gave a bound/input enrichment of 0.166 ratio.
`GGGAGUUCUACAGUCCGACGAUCAGAGGUGCAAAGAAGACUGCAGAAAUGAACGAAAAGCUCUCCAAGAUGGGUGAAAGUUCACUCCGAAACUUUACGAUGGACACAGAGUCCAGUGUUUAUAACUUUGAAGGAGAAGACUAUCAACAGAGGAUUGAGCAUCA` gave a bound/input enrichment of 0.154 ratio.
For `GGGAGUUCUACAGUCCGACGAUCGCAAUCAGGCUGUAUGAACGAGGUGACGCAUCCAAAGAAGACAUUGACACUGCUAUGAAAUCCGGAGCCGGUUACCCCAUGGGCCCAUUUGAGCUUCUAGAUUAUGUCGGACUGGAUACUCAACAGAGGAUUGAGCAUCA`, the bound/input enrichment was 0.44 ratio.
For `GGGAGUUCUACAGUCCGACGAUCACACAAAUGUACCCUUACUCCAGUCUGUCCCUCACCUCCAUUGUCUAAGGUAUUGGACUCCGAUGCUUAUGUGUAAUAUGUUGAACCUGUCAGUUGCUGUCUUUUUCCUUCUUCGCAUUUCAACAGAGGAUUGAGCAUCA`, the bound/input enrichment was 0.205 ratio.
The bound/input enrichment of `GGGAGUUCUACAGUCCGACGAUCUACAUUUACAAAGCCAUUUUACAUGCAUUAAAAGAGGGCUACAAUGUGUUUUACAAAUACCCGCACUUUUUUUUCCUGUUAUGUACCUAGUGUUAGAGGGUCAGAAUAAUCUUUCUGCUUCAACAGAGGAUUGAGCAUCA` is reported as 0.224 ratio.
`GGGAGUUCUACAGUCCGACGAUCGAACUUCAAGCUUUACAAAUAUUACAGAAGAAAAAACAUAAAAAUUCUCAGUUAGAUAAAAACCGUGAAAUUUGCCAGGAAGUUCAAGCUGUAUGUGAUGCCCUCGGGGUCCCCAAGUCUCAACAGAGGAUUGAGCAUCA` has a bound/input enrichment of 0.421 ratio.
The bound/input enrichment of `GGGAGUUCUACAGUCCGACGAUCGAUGAGGUCCAGGCUAUUUGCCAACCUGAGGGAAAUUACUGCCCGUCAGCAGAGUUCAUUCCGCAGACUAUGUAGGCAAUGGAACCAAAGUUUUUUACUUUUUUUUUCCUGUUUUUUUUUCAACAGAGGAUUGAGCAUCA` is reported as 0.351 ratio.
For `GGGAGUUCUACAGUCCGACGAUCAUUGAGCCUGUAUUUCCAGAGAACACAGAAAACUCUGAAAAAAUAUCCUUUCAGCUUCAUUCCGCUUUAACUUCAAAUUCAUCUUGGGUUCAGUGUCCCAGCCAUUUGGAACUCAUGAAUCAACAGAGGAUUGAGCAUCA`, the bound/input enrichment was 0.167 ratio.
`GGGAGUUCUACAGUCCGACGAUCCAUCUCAGGUCAUCUUCUGUGGAAGAUGUUAAACUAAUUACUAAUGAGGUAAGACCUGCUGCCGAAAUUAGAAGAUGCAGUAUGCCCUCAGUUAUCUGUGAGCCCAUAAAACAUUUCCAACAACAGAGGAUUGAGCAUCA` has a bound/input enrichment of 0.255 ratio.
`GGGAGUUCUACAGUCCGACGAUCUGGUUUAAAGCCCUGAGGAUAGUAGUCACUUUAUUGGCCACUUUUUCAUUUAUAAUCACUUCCGCCGUUAAAAGUAGUUUUCCAGAAAAAGGACAUAAGAGACCUGGUCAAGUAUAAAAACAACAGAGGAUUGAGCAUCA` has a bound/input enrichment of 0.707 ratio.
`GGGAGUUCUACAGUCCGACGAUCCAAGUGCUGGCAGCUUUGCAGGAACGUCUUGACAACGUCUCUCACACUCCUUCUAGUUACACCGAAACUUUACCUAAAGCUGUCAAAAGAAGAAUUAAUGCCCUGAAGCAGCUCCAGGUGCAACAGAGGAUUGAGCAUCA` has a bound/input enrichment of 0.437 ratio.

A few entries again (series 2):
`CTCAGTTCGGTGGGCTGGACTCCTGTCCAGCCCACCGAACTGAGACACTC (5mC at 36)` gave a median fluorescence of 4150 a.u.
The median fluorescence of `CTCAGTTATGTGGGCTGGACTCCTGTCCAGCCCACATAACTGAGACACTC` is reported as 3950 a.u.
The median fluorescence of `CTCAGCTCTGTGGGCTGGACTCCTGTCCAGCCCACAGAGCTGAGACACTC` is reported as 4300 a.u.
`CAGGCCTGTCGCGGTTGGCCTCCTGGCCAACCGCGACAGGCCTGACACTC (5mC at 1)` has a median fluorescence of 5890 a.u.
